Results collected from several papers.
Parts stem from different laboratories: compare values within a part only.

Set 1
Target: Histone acetyltransferase KAT6A, winged helix 2, GST fusion (KAT6A, Homo sapiens, UniProt Q92794, residues 85-181)
Technique: protein binding microarray
Molecule type: double-stranded DNA, one strand shown
Matrix: in vitro
Concentration: not given
Notes: 8-mer, flanks averaged, mean of 2 arrays, mostly near background
Relative to: not given
Reading: higher = stronger binding
Target sequence (chain): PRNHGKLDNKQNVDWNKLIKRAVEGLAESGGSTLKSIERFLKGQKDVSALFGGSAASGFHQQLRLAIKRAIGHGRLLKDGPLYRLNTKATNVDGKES
Strand | E-score
AAGTCACG | -0.133
CGAGCTAG | -0.0144
CTACCGAA | -0.0445
AGACTGCG | 0.0709
GTTGCGTA | 0.0843
AGGCGGCC | 0.167

Set 2
Target: Interferon regulatory factor 5, full length, phosphomimetic (IRF5, Homo sapiens, UniProt Q13568-2, residues 1-514, S451D/S453D/S456D/S462D)
Technique: protein-binding microarray
Molecule type: double-stranded DNA, one strand shown
Matrix: in vitro
Concentration: 940 nM top
Notes: 60-bp whole probe
Added: salmon DNA 0.4 mg/ml
Relative to: random background probes
Reading: higher = stronger binding
Constant ends, left off below: GCCTAGCAC … GTCTTGATTCGCTTGACGCTGCTG
Strand | fitted relative affinity
TTATATATCGGGTTTCGATTAGTGCTA | 5.31 z-score
TTAGGACTGGGTTTCCGTTAGTGCTAG | 0.358 z-score
TCATGCTTAGTATTTTTTACTGTGCTA | 0.296 z-score
TTAGGGCTGGGGTATCGGTTAGTGCTA | 3.04 z-score
GACGGTTTCGGTCTCGGGTCGTGCTAG | 15.2 z-score
TTAGGTATCCGACTGCTTTAGTGCTAG | -0.00126 z-score

Set 3
Target: Sal-like protein 4, full length isoform B (SALL4, Homo sapiens, UniProt Q9UJQ4-2, residues 1-616)
Technique: universal PBM
Molecule type: double-stranded DNA, one strand shown
Matrix: in vitro
Concentration: not given
Notes: 8-mer, flanks averaged, mean of replicates
Reading: higher = stronger binding
Construct (chain): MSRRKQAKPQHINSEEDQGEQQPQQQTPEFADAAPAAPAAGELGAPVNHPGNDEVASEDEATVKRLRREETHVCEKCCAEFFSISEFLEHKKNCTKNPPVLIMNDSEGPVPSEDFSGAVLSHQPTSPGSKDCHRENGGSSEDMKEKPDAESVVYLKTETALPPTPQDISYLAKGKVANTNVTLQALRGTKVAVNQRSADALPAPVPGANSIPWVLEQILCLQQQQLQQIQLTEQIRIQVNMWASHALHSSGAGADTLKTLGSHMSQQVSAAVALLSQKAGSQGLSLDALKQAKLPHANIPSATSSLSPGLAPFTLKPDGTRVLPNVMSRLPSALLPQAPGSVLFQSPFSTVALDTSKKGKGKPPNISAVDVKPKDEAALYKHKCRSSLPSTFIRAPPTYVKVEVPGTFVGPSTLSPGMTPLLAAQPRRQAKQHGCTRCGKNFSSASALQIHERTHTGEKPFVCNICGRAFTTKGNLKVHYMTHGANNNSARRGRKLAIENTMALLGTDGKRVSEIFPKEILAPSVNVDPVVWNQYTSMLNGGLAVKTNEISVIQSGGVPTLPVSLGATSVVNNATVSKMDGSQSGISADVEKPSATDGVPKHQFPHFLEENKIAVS
Strand | E-score
ATTAAACC | 0.218
ATGTCCTG | -0.072
AATTATCG | 0.348
CACCGATA | -0.00417

Other studies, line by line
Substance | target | test | system | setting | scale | endpoint | value
PhoQ, residues 284 288 289 292 302 303 SIHLQL | PhoP, residues 12 14 15 18 19 NQAHL (Escherichia coli, UniProt P23836) | Sort-seq, measured: YFP reporter | E. coli | PhoQ-PhoP variant library, added: 10 µM Mg2+ | relative to: high Mg2+ state, higher = stronger signaling | fold induction | 15.5
